# Published values gathered from unrelated publications.
# ± gives the spread as reported.
# HDAC1: Histone deacetylase 1 (HDAC1, Homo sapiens, UniProt Q13547)
# UniProt Q13547, sequence (whole entry, looked up): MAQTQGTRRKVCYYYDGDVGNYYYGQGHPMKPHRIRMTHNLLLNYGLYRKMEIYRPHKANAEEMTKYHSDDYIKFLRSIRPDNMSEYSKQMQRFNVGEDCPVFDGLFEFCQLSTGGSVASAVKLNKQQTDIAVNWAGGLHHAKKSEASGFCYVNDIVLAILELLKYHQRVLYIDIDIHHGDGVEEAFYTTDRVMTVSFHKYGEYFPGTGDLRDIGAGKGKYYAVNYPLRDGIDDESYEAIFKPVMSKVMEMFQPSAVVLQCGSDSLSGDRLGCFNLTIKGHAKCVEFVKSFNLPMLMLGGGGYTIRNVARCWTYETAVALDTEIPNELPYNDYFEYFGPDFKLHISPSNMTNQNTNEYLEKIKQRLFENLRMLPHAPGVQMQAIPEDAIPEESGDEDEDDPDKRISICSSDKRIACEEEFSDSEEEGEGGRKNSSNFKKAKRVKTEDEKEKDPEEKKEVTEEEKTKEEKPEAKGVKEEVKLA
# PPARG: Peroxisome proliferator-activated receptor gamma (PPARG, Homo sapiens, UniProt P37231)
# UniProt P37231, sequence (whole entry, looked up): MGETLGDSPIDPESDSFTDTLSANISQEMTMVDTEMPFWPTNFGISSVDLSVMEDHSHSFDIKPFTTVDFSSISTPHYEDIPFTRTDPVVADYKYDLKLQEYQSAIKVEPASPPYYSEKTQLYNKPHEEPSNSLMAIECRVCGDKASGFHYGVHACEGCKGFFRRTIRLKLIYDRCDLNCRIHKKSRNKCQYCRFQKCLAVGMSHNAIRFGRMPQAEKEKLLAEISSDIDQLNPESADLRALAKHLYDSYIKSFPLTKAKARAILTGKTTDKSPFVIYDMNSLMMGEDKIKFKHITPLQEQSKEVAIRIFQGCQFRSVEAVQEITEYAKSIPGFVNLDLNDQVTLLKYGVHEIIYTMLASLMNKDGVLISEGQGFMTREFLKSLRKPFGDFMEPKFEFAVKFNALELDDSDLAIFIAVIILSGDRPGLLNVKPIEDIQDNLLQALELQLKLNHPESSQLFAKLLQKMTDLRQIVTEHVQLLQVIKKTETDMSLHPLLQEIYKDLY
# CTSL: Procathepsin L (CTSL, Homo sapiens, UniProt P07711)
# UniProt P07711, sequence (whole entry, looked up): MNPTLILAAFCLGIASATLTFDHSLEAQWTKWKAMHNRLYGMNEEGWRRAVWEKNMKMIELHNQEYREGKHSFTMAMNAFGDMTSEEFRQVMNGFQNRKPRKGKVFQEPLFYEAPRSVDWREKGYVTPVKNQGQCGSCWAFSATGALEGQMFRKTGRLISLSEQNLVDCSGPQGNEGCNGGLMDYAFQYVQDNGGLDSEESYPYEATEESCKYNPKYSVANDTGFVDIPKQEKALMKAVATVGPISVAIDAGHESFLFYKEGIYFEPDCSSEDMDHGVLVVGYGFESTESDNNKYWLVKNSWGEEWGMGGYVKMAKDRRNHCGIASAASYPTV
# UniProt Q16644, sequence (whole entry, looked up): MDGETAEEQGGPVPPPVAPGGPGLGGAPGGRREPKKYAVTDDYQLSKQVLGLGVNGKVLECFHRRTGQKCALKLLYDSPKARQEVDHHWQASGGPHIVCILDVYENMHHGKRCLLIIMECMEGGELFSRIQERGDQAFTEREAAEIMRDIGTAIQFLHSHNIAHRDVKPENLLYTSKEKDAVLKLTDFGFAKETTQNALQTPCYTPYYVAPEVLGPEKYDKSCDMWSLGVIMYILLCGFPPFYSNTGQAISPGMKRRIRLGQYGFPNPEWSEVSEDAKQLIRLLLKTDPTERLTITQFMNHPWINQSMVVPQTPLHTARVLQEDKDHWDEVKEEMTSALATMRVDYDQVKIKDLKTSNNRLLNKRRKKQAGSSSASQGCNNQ
# UniProt P08173, sequence (whole entry, looked up): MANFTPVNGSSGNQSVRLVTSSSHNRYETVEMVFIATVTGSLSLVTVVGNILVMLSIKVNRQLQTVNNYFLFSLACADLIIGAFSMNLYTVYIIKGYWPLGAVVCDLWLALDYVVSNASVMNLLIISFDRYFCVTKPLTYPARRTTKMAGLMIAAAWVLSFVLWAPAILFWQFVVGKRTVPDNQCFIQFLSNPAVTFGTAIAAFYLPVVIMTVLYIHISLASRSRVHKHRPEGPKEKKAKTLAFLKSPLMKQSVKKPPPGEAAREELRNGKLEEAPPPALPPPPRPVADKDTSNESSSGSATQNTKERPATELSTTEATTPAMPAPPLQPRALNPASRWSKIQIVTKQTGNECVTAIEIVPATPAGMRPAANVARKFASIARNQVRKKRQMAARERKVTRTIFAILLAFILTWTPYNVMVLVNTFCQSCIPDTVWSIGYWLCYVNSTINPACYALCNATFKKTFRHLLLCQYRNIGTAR
# UniProt P28335, sequence (whole entry, looked up): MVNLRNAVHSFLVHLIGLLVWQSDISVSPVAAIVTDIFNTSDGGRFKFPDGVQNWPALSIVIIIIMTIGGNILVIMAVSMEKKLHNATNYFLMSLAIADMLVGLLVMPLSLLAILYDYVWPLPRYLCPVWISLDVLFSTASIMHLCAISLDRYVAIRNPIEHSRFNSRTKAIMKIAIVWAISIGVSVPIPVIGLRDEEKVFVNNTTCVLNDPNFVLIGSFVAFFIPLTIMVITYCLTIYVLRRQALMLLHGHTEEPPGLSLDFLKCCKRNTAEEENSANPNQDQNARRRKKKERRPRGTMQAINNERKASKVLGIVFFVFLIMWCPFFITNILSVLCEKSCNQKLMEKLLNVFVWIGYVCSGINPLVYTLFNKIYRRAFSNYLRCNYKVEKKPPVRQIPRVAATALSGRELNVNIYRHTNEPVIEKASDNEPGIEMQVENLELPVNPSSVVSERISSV
# UniProt P13504, sequence (whole entry, looked up): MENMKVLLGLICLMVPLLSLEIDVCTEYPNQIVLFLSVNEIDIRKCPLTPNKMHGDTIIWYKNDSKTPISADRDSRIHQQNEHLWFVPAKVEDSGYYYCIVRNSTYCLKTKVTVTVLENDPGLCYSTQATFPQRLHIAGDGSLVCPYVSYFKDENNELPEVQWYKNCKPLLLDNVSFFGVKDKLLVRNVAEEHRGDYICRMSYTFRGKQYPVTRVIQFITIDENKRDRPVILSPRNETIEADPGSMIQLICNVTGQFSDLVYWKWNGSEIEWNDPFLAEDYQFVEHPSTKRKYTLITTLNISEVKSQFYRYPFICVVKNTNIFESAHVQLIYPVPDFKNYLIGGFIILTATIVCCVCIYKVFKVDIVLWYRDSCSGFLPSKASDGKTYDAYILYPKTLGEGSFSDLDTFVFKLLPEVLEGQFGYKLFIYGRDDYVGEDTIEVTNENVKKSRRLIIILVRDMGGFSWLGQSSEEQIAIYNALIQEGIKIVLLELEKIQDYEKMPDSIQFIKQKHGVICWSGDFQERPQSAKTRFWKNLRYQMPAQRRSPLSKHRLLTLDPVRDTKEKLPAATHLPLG
# UniProt O08914, sequence (whole entry, looked up): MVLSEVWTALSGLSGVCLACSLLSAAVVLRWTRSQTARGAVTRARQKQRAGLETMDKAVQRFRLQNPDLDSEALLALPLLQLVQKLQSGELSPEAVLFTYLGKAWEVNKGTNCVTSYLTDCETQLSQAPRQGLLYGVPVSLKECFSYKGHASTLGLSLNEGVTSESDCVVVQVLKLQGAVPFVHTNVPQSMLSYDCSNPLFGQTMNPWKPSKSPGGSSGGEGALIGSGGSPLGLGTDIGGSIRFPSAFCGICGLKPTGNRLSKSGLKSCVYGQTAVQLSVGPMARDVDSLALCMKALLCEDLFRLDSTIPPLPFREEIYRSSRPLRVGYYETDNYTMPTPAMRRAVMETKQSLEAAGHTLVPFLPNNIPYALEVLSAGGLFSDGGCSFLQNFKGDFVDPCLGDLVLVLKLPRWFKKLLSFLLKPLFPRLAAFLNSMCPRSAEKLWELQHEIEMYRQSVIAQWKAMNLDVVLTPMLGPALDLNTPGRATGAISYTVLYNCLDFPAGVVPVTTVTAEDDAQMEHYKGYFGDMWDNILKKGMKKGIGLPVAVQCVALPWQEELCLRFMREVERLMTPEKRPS
# UniProt P25105, sequence (whole entry, looked up): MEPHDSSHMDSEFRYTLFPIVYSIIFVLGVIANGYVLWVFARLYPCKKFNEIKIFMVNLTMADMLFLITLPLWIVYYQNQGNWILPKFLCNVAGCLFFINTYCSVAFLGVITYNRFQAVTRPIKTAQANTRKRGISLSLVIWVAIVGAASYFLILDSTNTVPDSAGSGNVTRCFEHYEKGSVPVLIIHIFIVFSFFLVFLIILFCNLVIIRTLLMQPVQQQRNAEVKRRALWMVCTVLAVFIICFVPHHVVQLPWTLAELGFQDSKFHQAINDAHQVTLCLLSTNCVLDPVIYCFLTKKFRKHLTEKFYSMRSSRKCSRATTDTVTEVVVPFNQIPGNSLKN
SMILES,target or system,test,test system,conditions,scale,quantity,result
O=C1c2sc(-c3ccc(N4CCC(CO)CC4)nc3F)nc2CCN1c1cccnc1,"Muscarinic acetylcholine receptor M4 (CHRM4, Homo sapiens, UniProt P08173)","ligand displacement, radioligand",,1 µM,,inhibition,-1%
CC(=O)NCCNCc1cc(Cl)c(OCc2cccc(-c3cccc(OCc4ccc(C(=O)NO)cc4)c3)c2C)cc1OCc1cccc(C#N)c1,HDAC1,"enzyme activity, inhibitor",,1 µM,,inhibition,15.8%
Cc1cc(C(C)(C)C)ccc1OS(=O)(=O)Oc1cncc(C(=O)NO)c1,HDAC1,"enzyme activity, inhibitor, fluorescence",,10 µM,,inhibition,41%
Cc1c(Cc2cccc(OC(C)(C)C(=O)O)c2)c2ccc(C(=O)N[C@@H](C)c3cccc(Cl)c3)cc2n1C,PPARG,"ligand displacement, TR-FRET",,,,IC50,2 nM
C[Si](C)(C)C[C@@H](CN)CC(=O)O,"Glutamate receptor ionotropic, NMDA 1 (Grin1, Rattus norvegicus, UniProt P35439)","ligand displacement, radioligand",,75 µM,,inhibition,4%
Nc1ncc(-c2cc(-c3cnn(CC(F)(F)F)c3)ncc2F)nc1C(=O)NC1CNCC(F)C1 (stereo not shown),ICK,KINOMEscan competition binding,,1 µM,baseline: DMSO control,remaining binding,90%
C=C(NC(=O)c1csc(-c2nc3c(cc2O)-c2nc(cs2)C(=O)NC(C(C)O)C(=O)NC(=C(C)OC)c2nc(cs2)C(=O)NC2c4nc(cs4)C(=O)NC(COC(=O)c4c5c6c(cccc6n4O)COC(=O)C(OC4CC(C)(O)C(N(C)C)C(C)O4)C2OC5)c2nc-3cs2)n1)C(N)=O (stereo not shown),,,"male cynomolgus monkey, plasma","intravenous, 3 mg/kg, single dose, infusion",,AUC(0-inf),20900 ng·h/mL
O=C(N1CCOCC1)n1ccnn1,"Fatty-acid amide hydrolase 1 (Faah, Mus musculus, UniProt O08914)","serine hydrolase activity, inhibitor, competitive gel-based ABPP",mouse T-cell proteome,"1 µM, 30 min, 37 °C",,inhibition,> 95%
CC(C)(C)CNC(=O)C[C@H](NC(=O)CCc1ccccc1)C(=O)N[C@@H](Cc1cccnc1)C(=O)NCc1ccccc1Cl,CTSL,"enzyme activity, inhibitor",,100 µM,,inhibition,28%
Brc1ccccc1-c1nnc(CSc2nnnn2-c2ccccc2)o1,"5-hydroxytryptamine receptor 2C (HTR2C, Homo sapiens, UniProt P28335)","ligand displacement, radioligand",,10 µM,,inhibition,19%
COCC(=O)N1CCc2cc(-c3csc(NC(=O)c4cc(OC)cc(OC)c4)n3)ccc21,"Interleukin-1 receptor type 1 (Il1r1, Mus musculus, UniProt P13504)","binding, radioligand binding",mouse,10 µM,,inhibition,-10%
CCn1cc(-c2cccc(C(F)(F)F)c2)c2sc(C(=N)NC3CCS(=O)(=O)CC3)cc2c1=O,"CREB-binding protein (CREBBP, Homo sapiens, UniProt Q92793)",,,1 µM,,inhibition,-5.2%
Cc1c(COc2cc(OCc3cccc(C#N)c3)c(CNC(CO)CO)cc2Cl)cccc1-c1cccc(OCCCCCCC(=O)NO)c1,HDAC1,"enzyme activity, inhibitor",,1 µM,,inhibition,63.5%
CN(Cc1ccc(/C=C/C(=O)NO)cc1)CC12CC3CC(CC(C3)C1)C2,human NK2 receptor,agonist radioligand binding,,0.05 µM,,inhibition,-4%
CC(=O)NCCCC[C@H](NC(=O)[C@@H](NC(=O)[C@H](C)NC(=O)[C@H](CC(C)C)NC(=O)[C@H](CCC(N)=O)NC(=O)[C@H](CCCCN)NC(=O)[C@H](CCCNC(=N)N)NC(=O)[C@@H]1CCCN1C(=O)[C@H](C)NC(=O)[C@@H](N)CCCCN)[C@@H](C)O)C(=O)N[C@@H](C)C(=O)N[C@@H](C)C(=O)N[C@@H](CCCNC(=N)N)C(=O)N[C@@H](CCCCN)C(=O)N[C@@H](CO)C(=O)N[C@@H](C)C(=O)N1CCC[C@H]1C(=O)N[C@@H](C)C(=O)O,CTSL,"enzyme activity, inhibitor",,"25 µM, pH 6.0, 25 °C, added: Z-LR-Mca at 0.16 x Km",,inhibition,82 ± 2%
Cn1ccc2cc(-n3c(=O)[nH]c4sc5c(c4c3=O)CCCC5)ccc21,"Sodium- and chloride-dependent GABA transporter 1 (Slc6a1, Rattus norvegicus, UniProt P23978)","transporter uptake, inhibitor",,10 µM,,inhibition,-2%
Cc1cccc(O[C@H]2CCC[C@@H](C(C)CNCc3ccncc3)C2)c1 (relative stereo),"MAP kinase-activated protein kinase 3 (MAPKAPK3, Homo sapiens, UniProt Q16644)","enzyme activity, inhibitor",,10 µM,,inhibition,-12%
COC1CN([C@H]2CC[C@H]([C@@]3(C)Oc4c(Cl)cc(C(=O)NCc5c(SC)cc(C)[nH]c5=O)c(C)c4O3)CC2)C1,,"RNA-seq, item: GNG12 mouse homolog","mouse, HT-1376 xenograft, whole blood",dose not given,baseline: vehicle,log2 fold change,0.259
Cc1[nH]nc2c1N=C(c1ccccc1Cl)c1cnc(N3CCOCC3)cc1N2,"Platelet-activating factor receptor (PTAFR, Homo sapiens, UniProt P25105)",cell-free assay,,10 µM,,inhibition,6%
C=CC(=O)Nc1cccc(Cn2ncc3cnc(Nc4cnn(CCOC)c4)nc32)c1,LATS1 human,"binding, KINOMEscan",,100 nM,lower = stronger binding,percent of control,68%
Cc1c(Cc2ccc(OC(C)(C)C(=O)O)cc2)c2ccc(C(=O)N[C@@H](C)c3ccc(C(F)(F)F)cc3)cc2n1C,PPARG,"ligand displacement, TR-FRET",,,,IC50,25 nM
CN(C)C/C=C/C(=O)Nc1ccc2nc(NCCCCCN(C)C)nc(NCCCCCCN(C)C)c2c1,"Protein arginine N-methyltransferase 7 (PRMT7, Homo sapiens, UniProt Q9NVM4)","enzyme activity, inhibitor, radiometric",,10 µM,,inhibition,46%

# For quick reference, copied from above:
SMILES,target or system,test,test system,conditions,scale,quantity,result
COCC(=O)N1CCc2cc(-c3csc(NC(=O)c4cc(OC)cc(OC)c4)n3)ccc21,"Interleukin-1 receptor type 1 (Il1r1, Mus musculus, UniProt P13504)","binding, radioligand binding",mouse,10 µM,,inhibition,-10%
CCn1cc(-c2cccc(C(F)(F)F)c2)c2sc(C(=N)NC3CCS(=O)(=O)CC3)cc2c1=O,"CREB-binding protein (CREBBP, Homo sapiens, UniProt Q92793)",,,1 µM,,inhibition,-5.2%
Cc1c(COc2cc(OCc3cccc(C#N)c3)c(CNC(CO)CO)cc2Cl)cccc1-c1cccc(OCCCCCCC(=O)NO)c1,HDAC1,"enzyme activity, inhibitor",,1 µM,,inhibition,63.5%
